Published values of several laboratories.
Compare with care: the assays were run in different laboratories. ± gives the spread as reported.

| SMILES | cell line | assay | setting | EC50 |
| --- | --- | --- | --- | --- |
| CCn1cc(-c2cc(Cn3ccnc3)cc3c2CCN([C@H](c2cc(OC)ccn2)C2CC2)C3=O)c(C(F)(F)F)n1 | JHOC5 | cell growth | 120 h | 5560 nM |
| CCCNC(=O)[C@H]1O[C@@H]1C(=O)N[C@H](C(=O)N1CCC[C@H]1C(=O)OC)[C@@H](C)CC | MDA-MB-231 | cell viability, MTT | 72 h, dark | 21000 ± 5100 nM |
| COc1ccc2nc(N3CCOCC3)c(-c3cc(-c4cccc(O)c4)nc4[nH]nc(N)c34)cc2c1 | WI-38 | cell viability, MTT | 72 h | 149 ± 7 nM |
| COc1cnc2cccc(N3CCc4c(cc(Cn5ccnc5C)cc4-c4cn(C)nc4C(F)(F)F)C3=O)c2c1 | RPMI-7951 | cell growth, inhibitor | 120 h | > 30000 nM |
| OCCN(CCO)c1nc(N2CCCCC2)c2nc(N(CCO)CCO)nc(N3CCCCC3)c2n1 | Jurkat T cells, wild type | [3H]-thymidine incorporation, inhibitor | 3 h | 68.7 nM |
| CCOC(=O)c1ccc(NC2CCCCC2)c(N)c1 | PANC-1 | protection from ferroptosis, PrestoBlue | 24 h, added: erastin 10 µM | 70 nM |
| C=C(NC(=O)C(=C)NC(=O)c1csc(C2=N[C@@H]3c4csc(n4)[C@H]4NC(=O)c5csc(n5)[C@H]([C@](C)(O)[C@@H](C)O)NC(=O)[C@H]5CSC(=N5)/C(=C/C)NC(=O)[C@H]([C@@H](C)O)NC(=O)c5csc(n5)[C@]3(CC2)NC(=O)[C@H](C)NC(=O)C(=C)NC(=O)[C@H](C)NC(=O)[C@H]([C@@H](C)CC)N[C@@H]2C=Cc3c([C@H](C)O)cc(nc3[C@H]2O)C(=O)O[C@@H]4C)n1)C(N)=O | SCC-90 | cell viability |  | 1100 nM |
| CCOc1nc(-c2cccc(O)c2)cc(-c2cc3cc(OC)ccc3nc2N2CCOCC2)c1C#N | WI-38 | cell viability, MTT | 72 h | 85 ± 1 nM |
| CCn1cc(-c2cc(Cn3ccoc3=N)cc3c2CCN([C@@H](C)c2cc(OC)ccn2)C3=O)c(C(F)(F)F)n1 | ML1 | cell growth, inhibitor | 120 h | 25500 nM |
| Nc1n[nH]c2nc(-c3cccc(O)c3)cc(-c3cc4cc(Cl)ccc4nc3N3CCOCC3)c12 | WI-38 | cell viability, MTT | 72 h | 133 ± 3 nM |
| C[C@]12CCCN1CC1=NNC(=O)c3cc(F)cc4[nH]c2c1c34 | KATO III |  | added: temozolomide | > 10000 nM |
| CCOc1nc(-c2cccc(O)c2)cc(-c2cc3ccccc3nc2N2CCOCC2)c1C#N | WI-38 | cell viability, MTT | 72 h | 38 ± 0.3 nM |
| O=C1CCC(=O)N1Cc1cc2nccc(-c3cc(Cl)cc4c3N([C@@H]3CNC5(CCC5)C3)CCC4)c2s1 | MM1.S | protein induction, refers to: p53 | adjusted for plasma unbound fraction | 0.265 µg/mL |

Repeated from above:
| SMILES | cell line | assay | setting | EC50 |
| --- | --- | --- | --- | --- |
| C=C(NC(=O)C(=C)NC(=O)c1csc(C2=N[C@@H]3c4csc(n4)[C@H]4NC(=O)c5csc(n5)[C@H]([C@](C)(O)[C@@H](C)O)NC(=O)[C@H]5CSC(=N5)/C(=C/C)NC(=O)[C@H]([C@@H](C)O)NC(=O)c5csc(n5)[C@]3(CC2)NC(=O)[C@H](C)NC(=O)C(=C)NC(=O)[C@H](C)NC(=O)[C@H]([C@@H](C)CC)N[C@@H]2C=Cc3c([C@H](C)O)cc(nc3[C@H]2O)C(=O)O[C@@H]4C)n1)C(N)=O | SCC-90 | cell viability |  | 1100 nM |
| CCOc1nc(-c2cccc(O)c2)cc(-c2cc3cc(OC)ccc3nc2N2CCOCC2)c1C#N | WI-38 | cell viability, MTT | 72 h | 85 ± 1 nM |
